Measurements gathered from unrelated publications.
Numbers after ± are the reported error.
UniProt P08684, sequence (whole entry, looked up): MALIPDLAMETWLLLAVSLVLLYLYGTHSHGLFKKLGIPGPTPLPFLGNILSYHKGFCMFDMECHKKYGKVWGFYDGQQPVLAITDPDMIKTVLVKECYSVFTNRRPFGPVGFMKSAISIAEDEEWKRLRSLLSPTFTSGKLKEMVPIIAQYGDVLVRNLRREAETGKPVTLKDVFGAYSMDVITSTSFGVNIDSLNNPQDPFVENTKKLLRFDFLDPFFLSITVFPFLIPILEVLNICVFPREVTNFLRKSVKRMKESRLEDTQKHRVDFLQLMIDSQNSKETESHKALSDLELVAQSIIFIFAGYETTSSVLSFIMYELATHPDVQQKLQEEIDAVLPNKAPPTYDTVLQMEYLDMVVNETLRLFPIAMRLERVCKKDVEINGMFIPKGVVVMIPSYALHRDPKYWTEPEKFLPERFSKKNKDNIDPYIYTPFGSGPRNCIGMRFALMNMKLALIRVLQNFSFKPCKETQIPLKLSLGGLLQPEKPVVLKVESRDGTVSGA

SMILES	tested on	assay	system	conditions	how to read	endpoint	result
N=C(N)NCCC[C@@H]1NC(=O)[C@H](Cc2c[nH]c3ccccc23)NC(=O)[C@@H](CC2CCCCC2)NC(=O)[C@@H]2CCCN2C(=O)[C@@H](NC(=O)CCc2ccccc2)CCCNC1=O	–	–	C57BL/6J mice, spinal cord	intraperitoneal, 1 mg/kg	–	elimination half-life	39.5 min
Nc1ccccc1C(=O)NS(=O)(=O)OC[C@H]1O[C@@H](n2cnc3c(N)ncnc32)[C@H](O)[C@@H]1O	Pseudomonas aeruginosa	LC-MS/MS of lysate	PA14, LB medium	1000 µM, 30 min, OD600 0.5	–	intracellular concentration	20 to 30 µM
Cc1cc(CCC(=O)OCC(C)(C)C2OCC3(CO2)COC(C(C)(C)COC(=O)CCc2cc(C)c(O)c(C(C)(C)C)c2)OC3)cc(C(C)(C)C)c1O (centres unmarked)	Cyprinus carpio	everted gut sac	intestine	concentration not given, 24 h, 23 °C	–	concentration in mucosal solution	25.9 ± 1.8 mg/L
C=CC(=O)Nc1cc(Nc2nccc(-c3cn(C)c4ccccc34)n2)c(OCC(F)(F)F)nc1N(C)CCN(C)C	Cytochrome P450 3A4 (CYP3A4, Homo sapiens, UniProt P08684)	enzyme activity, inhibitor	human, liver microsomes	0.1 µM, testosterone probe	–	activity vs control	100%
COc1cc(O)c(-c2c(O)cc(OC)c3c2ccc2cc(O)ccc23)c2ccc3ccccc3c12	BV-2	cell growth or viability, MTT	–	20 µM, 24 h	–	viability	96.4%
Cc1c(Cc2cc(C(C)(C)C)c(O)c(C(C)(C)C)c2)c(C)c(Cc2cc(C(C)(C)C)c(O)c(C(C)(C)C)c2)c(C)c1Cc1cc(C(C)(C)C)c(O)c(C(C)(C)C)c1	Cyprinus carpio	everted gut sac	intestine	concentration not given, 24 h, 23 °C	–	concentration in mucosal solution	63.7 ± 5.1 mg/L
COc1cc(O)cc2c1-c1ccc(O)c(OC)c1CC2	BV-2	cell growth or viability, MTT	–	40 µM, 24 h	–	viability	94.3%
CCCCCCCCCCCCCC(=O)Nc1ccccc1SSc1ccccc1NC(=O)CCCCCCCCCCCCC	HaCaT	cell growth or viability, MTT	–	20 mg/mL, 24 h	–	viability	100%
Cn1c(=O)oc2ccc(-c3ccc(CC(C#N)NC(=O)C4CNCCCO4)c(F)c3)cc21 (centres unmarked)	–	–	human	oral, 20 mg once daily, TEAE, multiple ascending dose	–	chest pain incidence	0%
O=C(O)CCC(NP(=O)(O)OCCC[C@@H](NC(=O)CC[C@H](NC(=O)CCCCCNC(=O)c1ccc([18F])cc1)C(=O)O)C(=O)O)C(=O)O (some centres unmarked)	CWR22Rv1 tumour model	–	host not given, muscle	4 h, tumour-bearing	–	tracer uptake	0.036 %ID/g
NC(=S)N/N=C/c1ccccn1	Cu2+ complex	potentiometric titration	–	25 °C	–	log stability constant	19.9
N#CCc1cccc(Cl)c1-c1ccc2[nH][11c](=O)[nH]c2c1	P-glycoprotein and Bcrp	ex vivo brain uptake	mouse	injection, 30 min, added: tariquidar and Ko143	reference: without inhibitors	brain-to-blood ratio increase	233%
O=C(O)[C@@H]1C[C@@H](O)CN1C(=O)[C@@H]1CCCN1	iron(III) ion	complex formation, Van't Hoff plot	aqueous 0.15 M NaCl	MAH−1 complex species	–	ΔS	-0.97 kJ/mol/K
[64Cu+2].c1ccc(CNCc2ccc(CN3CCCN4CCNCCCN(CC4)CC3)cc2)nc1	CXCR4	–	NOD/SCID mouse, U87 and U87-stb-CXCR4 xenografts, spleen	iv, 90 min, ex vivo	–	tissue uptake	16.4 ± 2.76 %ID/g
CC(=O)N[C@H](C(=O)N[C@H](C(=O)N[C@@H](CCCNC(=N)N)C(=O)N1Cc2ccccc2C[C@H]1C(=O)N[C@@H](Cc1ccccc1)C(N)=O)C1CCCCC1)C(C)C	human PBMC	Bio-Plex multiplex, refers to: TNF-a	–	500 µg/mL, 24 h	–	cytokine level	7 ± 3.1 pg/mL
CCCCCCCCCCCC(=O)Nc1ccccc1SSc1ccccc1NC(=O)CCCCCCCCCCC	HaCaT	cell growth or viability, MTT	–	5 mg/mL, 24 h	–	viability	100%
[64Cu+2].c1cnc(CNCc2ccc(CN3CCCN4CCNCCCN(CC4)CC3)cc2)nc1	CXCR4	–	NOD/SCID mouse, U87 and U87-stb-CXCR4 xenografts, muscle	iv, 120 min, ex vivo	–	tissue uptake	0.34 ± 0.03 %ID/g

Some of these lines once more:
SMILES	tested on	assay	system	conditions	how to read	endpoint	result
COc1cc(O)cc2c1-c1ccc(O)c(OC)c1CC2	BV-2	cell growth or viability, MTT	–	40 µM, 24 h	–	viability	94.3%
CCCCCCCCCCCCCC(=O)Nc1ccccc1SSc1ccccc1NC(=O)CCCCCCCCCCCCC	HaCaT	cell growth or viability, MTT	–	20 mg/mL, 24 h	–	viability	100%
Cn1c(=O)oc2ccc(-c3ccc(CC(C#N)NC(=O)C4CNCCCO4)c(F)c3)cc21 (centres unmarked)	–	–	human	oral, 20 mg once daily, TEAE, multiple ascending dose	–	chest pain incidence	0%
